# Results from different studies.
# A part holds a random share of what one study measured. Values joined by “and” are separate records of one study, mostly repeats; a detail may differ.
# Chain of UniProt Q96SB4 (whole entry, looked up): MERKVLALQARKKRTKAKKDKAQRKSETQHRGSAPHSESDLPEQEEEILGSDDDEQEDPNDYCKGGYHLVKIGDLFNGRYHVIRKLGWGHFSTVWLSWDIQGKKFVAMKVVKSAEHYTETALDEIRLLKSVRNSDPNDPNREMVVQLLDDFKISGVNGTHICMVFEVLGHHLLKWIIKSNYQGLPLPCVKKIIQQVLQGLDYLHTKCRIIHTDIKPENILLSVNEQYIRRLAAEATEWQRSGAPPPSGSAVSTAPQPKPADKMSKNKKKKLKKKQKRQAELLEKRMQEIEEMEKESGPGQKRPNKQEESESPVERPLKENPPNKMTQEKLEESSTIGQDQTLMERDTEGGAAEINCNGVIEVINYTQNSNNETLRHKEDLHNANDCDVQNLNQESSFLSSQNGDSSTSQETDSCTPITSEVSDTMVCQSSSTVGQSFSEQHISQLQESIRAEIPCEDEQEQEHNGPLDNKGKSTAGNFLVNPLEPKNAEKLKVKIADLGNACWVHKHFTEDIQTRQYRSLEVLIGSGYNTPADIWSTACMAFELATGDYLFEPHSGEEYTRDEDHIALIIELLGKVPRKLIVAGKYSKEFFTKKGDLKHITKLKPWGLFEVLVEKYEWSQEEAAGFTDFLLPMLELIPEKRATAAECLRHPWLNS
# Chain of UniProt P19784 (whole entry, looked up): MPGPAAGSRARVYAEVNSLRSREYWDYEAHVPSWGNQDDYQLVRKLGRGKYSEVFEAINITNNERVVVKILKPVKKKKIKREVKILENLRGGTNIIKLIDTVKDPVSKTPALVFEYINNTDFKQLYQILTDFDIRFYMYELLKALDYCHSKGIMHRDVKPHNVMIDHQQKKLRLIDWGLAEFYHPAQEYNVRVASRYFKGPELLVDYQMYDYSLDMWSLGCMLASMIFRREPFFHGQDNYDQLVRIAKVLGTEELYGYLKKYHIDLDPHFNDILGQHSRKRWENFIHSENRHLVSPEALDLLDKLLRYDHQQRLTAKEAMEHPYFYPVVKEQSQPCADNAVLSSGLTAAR
# Chain of UniProt Q9UQB9 (whole entry, looked up): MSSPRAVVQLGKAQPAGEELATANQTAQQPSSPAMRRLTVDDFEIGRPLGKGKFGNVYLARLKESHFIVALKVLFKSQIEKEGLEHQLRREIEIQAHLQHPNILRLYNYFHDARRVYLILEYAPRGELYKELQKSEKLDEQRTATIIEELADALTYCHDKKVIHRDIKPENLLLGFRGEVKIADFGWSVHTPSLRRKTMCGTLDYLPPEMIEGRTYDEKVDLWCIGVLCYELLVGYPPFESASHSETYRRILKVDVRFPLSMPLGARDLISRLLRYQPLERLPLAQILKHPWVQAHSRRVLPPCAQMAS
# Chain of UniProt P45985 (whole entry, looked up): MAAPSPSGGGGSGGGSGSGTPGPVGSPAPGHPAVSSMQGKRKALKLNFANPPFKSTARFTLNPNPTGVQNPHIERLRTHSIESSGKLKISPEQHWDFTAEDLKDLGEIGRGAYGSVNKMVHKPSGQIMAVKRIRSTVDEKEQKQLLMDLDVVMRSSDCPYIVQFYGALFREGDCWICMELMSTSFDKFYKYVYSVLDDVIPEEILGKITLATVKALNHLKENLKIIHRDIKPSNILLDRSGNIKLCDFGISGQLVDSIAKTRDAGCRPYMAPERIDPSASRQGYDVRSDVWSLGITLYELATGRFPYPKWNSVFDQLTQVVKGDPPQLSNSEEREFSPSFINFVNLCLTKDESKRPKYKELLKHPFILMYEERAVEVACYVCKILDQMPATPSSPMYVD
# Chain of UniProt Q86YV6 (whole entry, looked up): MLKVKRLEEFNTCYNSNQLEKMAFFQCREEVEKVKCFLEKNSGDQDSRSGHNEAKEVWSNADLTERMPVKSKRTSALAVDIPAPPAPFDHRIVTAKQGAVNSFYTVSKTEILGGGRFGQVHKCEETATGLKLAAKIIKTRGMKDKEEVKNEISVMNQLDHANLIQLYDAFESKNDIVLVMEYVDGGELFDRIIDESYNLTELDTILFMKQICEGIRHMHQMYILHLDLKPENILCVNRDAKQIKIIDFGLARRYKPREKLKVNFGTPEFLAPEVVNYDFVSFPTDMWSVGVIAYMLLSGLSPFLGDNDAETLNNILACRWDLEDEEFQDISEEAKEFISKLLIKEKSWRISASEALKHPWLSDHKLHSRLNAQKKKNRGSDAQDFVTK
# Chain of UniProt Q6P3R8 (whole entry, looked up): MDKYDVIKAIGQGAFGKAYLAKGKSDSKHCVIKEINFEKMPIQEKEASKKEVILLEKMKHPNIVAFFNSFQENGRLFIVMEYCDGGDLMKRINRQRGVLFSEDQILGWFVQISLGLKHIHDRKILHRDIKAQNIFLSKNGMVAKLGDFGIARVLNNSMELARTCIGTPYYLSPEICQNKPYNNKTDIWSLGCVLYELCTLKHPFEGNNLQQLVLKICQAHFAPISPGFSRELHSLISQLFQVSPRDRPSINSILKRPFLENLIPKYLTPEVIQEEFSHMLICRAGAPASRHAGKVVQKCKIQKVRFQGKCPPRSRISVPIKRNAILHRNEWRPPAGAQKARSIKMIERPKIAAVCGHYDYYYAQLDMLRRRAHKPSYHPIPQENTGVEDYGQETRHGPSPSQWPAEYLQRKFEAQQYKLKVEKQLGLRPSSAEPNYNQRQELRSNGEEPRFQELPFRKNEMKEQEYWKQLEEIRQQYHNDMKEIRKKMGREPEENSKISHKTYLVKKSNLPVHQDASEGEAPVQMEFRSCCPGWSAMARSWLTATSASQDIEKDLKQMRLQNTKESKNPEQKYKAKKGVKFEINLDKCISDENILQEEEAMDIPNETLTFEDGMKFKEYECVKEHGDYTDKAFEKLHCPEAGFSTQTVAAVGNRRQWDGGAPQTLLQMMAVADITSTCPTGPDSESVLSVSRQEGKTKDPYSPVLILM
# Chain of UniProt Q9H1R3 (whole entry, looked up): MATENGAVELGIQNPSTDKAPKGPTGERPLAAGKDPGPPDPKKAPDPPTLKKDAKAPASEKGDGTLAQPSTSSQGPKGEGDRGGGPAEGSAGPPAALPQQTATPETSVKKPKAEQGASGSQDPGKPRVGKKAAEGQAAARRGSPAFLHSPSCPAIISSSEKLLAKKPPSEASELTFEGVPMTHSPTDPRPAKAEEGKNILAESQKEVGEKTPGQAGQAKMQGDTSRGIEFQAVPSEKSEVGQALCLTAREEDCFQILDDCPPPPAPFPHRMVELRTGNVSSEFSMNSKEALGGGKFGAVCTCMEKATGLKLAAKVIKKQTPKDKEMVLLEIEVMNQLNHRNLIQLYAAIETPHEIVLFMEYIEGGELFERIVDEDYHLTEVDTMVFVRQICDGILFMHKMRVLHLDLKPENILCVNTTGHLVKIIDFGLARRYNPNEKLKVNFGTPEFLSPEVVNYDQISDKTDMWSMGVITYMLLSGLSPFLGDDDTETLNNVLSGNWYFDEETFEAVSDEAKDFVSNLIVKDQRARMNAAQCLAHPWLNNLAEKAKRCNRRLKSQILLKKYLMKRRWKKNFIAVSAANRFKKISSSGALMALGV

# Sample 1
# Species: human
# Medium: microsomes or S9
# Concentration: 2 µM
# Time: 0.5 h
Compound,remaining compound
CC(C)(C)Nc1ncc(-c2cnn(C3CCN(C(=O)OC(C)(C)C)CC3)c2)cc1C(=O)O,65.3%
CC1CC(=O)N(Cc2ccc(Br)cc2)c2ccccc2N1 (stereo not shown),11.6%
COc1cc2[nH]c3c(=O)n(-c4ccccc4)ncc3c2cc1OC,75.1%
COc1c(F)c(F)cc2c(=O)c(C(=O)NCCCN3CCCC3=O)cn(C3CC3)c12,66.6%
CCOc1cc(=O)n2c(c1C(=O)Nc1cc(Cl)c(OC)cc1OC)CCCC2,73.6%
Fc1ccccc1-c1cn2c3ccccc3nc2n1CCN1CCCCC1,0.228%

# Sample 2
# Structure (SMILES): Cc1c(NC(=O)c2cc(C(N)=O)nc3cc(F)ccc23)c(C(F)(F)F)nn1Cc1ccc(C(C)(C)C)cc1
# Read-out: cell-free assay
# Method: competition with immobilised ligand
# Concentration: 1 µM
target,remaining binding
"CSNK2A2 (Homo sapiens, UniProt P19784)",100%
"SRPK1 (Homo sapiens, UniProt Q96SB4)",100%
"Aurora kinase C (AURKC, Homo sapiens, UniProt Q9UQB9)",100%
"MYLK4 (Homo sapiens, UniProt Q86YV6)",100%
"MYLK2 (Homo sapiens, UniProt Q9H1R3)",87%
"DYRK1B (Homo sapiens, UniProt Q9Y463)",81%
"MAP2K4 (Homo sapiens, UniProt P45985)",100%
"NEK5 (Homo sapiens, UniProt Q6P3R8)",100%

# Sample 3
# Target: Myotonin-protein kinase (DMPK, Homo sapiens, UniProt Q09013)
# Read-out: enzyme activity
# Action: inhibitor
# Concentration: 0.5 µM
# Reference: control
# Residues (Q09013 1-629): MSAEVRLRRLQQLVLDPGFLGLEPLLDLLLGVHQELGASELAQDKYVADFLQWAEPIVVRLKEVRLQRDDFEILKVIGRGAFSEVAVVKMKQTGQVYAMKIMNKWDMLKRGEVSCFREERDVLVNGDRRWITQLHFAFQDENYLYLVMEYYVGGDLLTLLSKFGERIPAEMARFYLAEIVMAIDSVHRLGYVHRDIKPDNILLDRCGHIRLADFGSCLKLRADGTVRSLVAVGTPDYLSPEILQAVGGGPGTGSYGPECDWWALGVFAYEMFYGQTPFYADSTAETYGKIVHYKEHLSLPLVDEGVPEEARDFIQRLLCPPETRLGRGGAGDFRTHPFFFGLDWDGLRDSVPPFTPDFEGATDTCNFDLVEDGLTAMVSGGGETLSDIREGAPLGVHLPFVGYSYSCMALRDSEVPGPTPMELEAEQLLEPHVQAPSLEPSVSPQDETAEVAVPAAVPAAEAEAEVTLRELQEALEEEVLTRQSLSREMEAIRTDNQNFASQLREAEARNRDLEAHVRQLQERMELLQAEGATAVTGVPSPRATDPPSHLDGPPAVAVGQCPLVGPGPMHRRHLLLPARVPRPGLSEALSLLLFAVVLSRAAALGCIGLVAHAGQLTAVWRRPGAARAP
SMILES,remaining activity
O=C1Cc2c([nH]c3ccc(Br)cc23)-c2ccccc2N1,110%
Cc1cc(Nc2cc(N3CCN(C)CC3)nc(Sc3ccc(NC(=O)C4CC4)cc3)n2)[nH]n1,98.5%
CC(C)(C)c1nc2c3cc[nH]c(=O)c3c3cc(F)ccc3c2[nH]1,105%
c1cc(-c2cnn3cc(-c4ccc(OCCN5CCCCC5)cc4)cnc23)ccn1,99.3%
CN(C)S(=O)(=O)c1ccc2c(c1)/C(=C/c1cc3c([nH]1)CCCC3)C(=O)N2,102%
O=C1c2ccccc2-c2nc3nnnn3nc21,84.8%
O=C(c1ccccc1)c1ccc(N2CCOCC2)cc1O,98.9%
N#Cc1cnc2cnc(NCc3cccnc3)cc2c1Nc1ccc(F)c(Cl)c1,104%
O=C1Nc2ccccc2/C1=C\c1c(Cl)[nH]c2ccccc12,101%
O=C1NC(=O)c2c1c1c3ccccc3[nH]c1n1cncc21,101%
c1ccc2c(-c3ccncc3)c[nH]c2c1,109%
O=c1c(-c2ccc(F)cc2)c(-c2ccncc2)[nH]n1-c1ccc(Cl)cc1,87.6%
c1ccc(-c2n[nH]c3c2oc2ccccc23)cc1,99.5%
O=C(c1cc2cc(O)ccc2[nH]1)c1cc2cc(O)ccc2[nH]1,96.9%
NC(=O)c1cccc(-c2cc(Nc3ccc(OC(F)(F)F)cc3)ncn2)c1,96.1%
O=c1cc(N2CCOCC2)oc2c(-c3ccccc3)cccc12,99.4%
NC(=O)c1ccc(-c2nc(-c3ccc4c(c3)OCCO4)c(-c3ccccn3)[nH]2)cc1,99.9%
O=C(O)/C=C/c1cc(Br)c(Br)c(Br)c1Br,103%
CCCCc1c(-c2ccc(OC)cc2)[nH]c2nccnc12,84.3%
CNc1cc2c(Nc3cccc(Br)c3)ncnc2cn1,112%
COc1cccc(-c2cc(=O)c3ccccc3o2)c1N,97.1%
O=Nc1c(-c2c(O)[nH]c3cc(Br)ccc23)[nH]c2ccccc12,124%
CCCCc1c(-c2ccc(O)cc2)[nH]c2nccnc12,91.8%
CC(C)N(CCC(=O)c1ccc2ccccc2c1)Cc1ccccc1,108%
CCN(CC)CCCCN1c2ccccc2Oc2ccc(Cl)cc21,99.2%

# Sample 4
# Cell line: A-375
# Concentration: 100 µM
# Time: 36 h
SMILES,viability [%]
CCN(CC)CCOCCOC(=O)C1(c2ccccc2)CCCC1,103
N[C@@H](Cc1c[nH]c2ccccc12)C(=O)O,81
O=C(O)[C@@H]1CSCN1,116
N#Cc1ccc2[nH]cc(CCCCN3CCN(c4ccc5oc(C(N)=O)cc5c4)CC3)c2c1,2.76
CN(C)c1ccc(C(=C2C=CC(=[N+](C)C)C=C2)c2ccc(N(C)C)cc2)cc1,5.91
CC(C)C(=O)Oc1ccc(CO)cc1[C@H](CCN(C(C)C)C(C)C)c1ccccc1,1.9
COc1cc2nc(N(C)CCCNC(=O)C3CCCO3)nc(N)c2cc1OC (stereo not shown),88.4

# Sample 5
# Cell line: mouse MPNST tumor cells
# Method: high-content nuclear imaging
# Measured: cell number
# Concentration: 10 µM
# Time: 12 h
# Setting: mean of 2 replicates
# Reference: plate mean
# Reading: higher = more cells
SMILES,nuclei count
OCCN(CCO)c1nc(N2CCCCC2)c2nc(N(CCO)CCO)nc(N3CCCCC3)c2n1,2.41 z-score and 2.93 z-score and 3.48 z-score
Clc1ccc(-c2nc3sccn3c2C=NOCc2ccc(Cl)c(Cl)c2)cc1,1.49 z-score
CC(C)c1cccc2c(-c3ccccc3)cc(-c3ccc(-c4ccc(C(=O)O)cc4)[nH]3)nc12,3.03 z-score
CCCCC(=O)NCCc1c(Cc2ccccc2)[nH]c2ccccc12,1.82 z-score
COc1ccc(Nc2nccc(NCCO)n2)cc1,0.327 z-score
Nc1nc2n[nH]nc2c(=O)[nH]1,-4.41 z-score
